Results collected from several papers.
Each line is one published result; not all experiments were run side by side. In brackets after ≈: the same amount, converted by molar mass.
Organism: Pseudomonas aeruginosa

| Structure (SMILES) | test | system | conditions | quantity | result |
| --- | --- | --- | --- | --- | --- |
| Nc1ccccc1C(=O)NS(=O)(=O)NC[C@H]1O[C@@H](n2cnc3c(N)ncnc32)[C@H](O)[C@@H]1O | HHQ production, LC-MS/MS | PA14 | 1500 µM, 8 h | inhibition | 90% |
| CC[C@H](C)[C@H](NC(=O)[C@H](CCCCN)NC(=O)[C@H](CCCCN)NC(=O)[C@H](CC(C)C)NC(=O)[C@H](CCCCN)NC(=O)[C@H](CCC(=O)O)NC(=O)[C@H](CCCCN)NC(=O)[C@@H](NC(=O)[C@H](CCCCN)NC(=O)[C@H](CC(N)=O)NC(=O)[C@H](CCCNC(=N)N)NC(=O)[C@H](Cc1ccccc1)NC(=O)[C@H](CCCCN)NC(=O)[C@H](CCCNC(=N)N)NC(=O)[C@H](CC(C)C)NC(=O)[C@H](CCCNC(=N)N)NC(=O)[C@H](CCCCN)NC(=O)[C@H](CCCNC(=N)N)NC(=O)[C@H](CC(C)C)NC(=O)CN)[C@@H](C)CC)C(=O)NCC(=O)N[C@@H](CCC(N)=O)C(=O)N[C@@H](CCCCN)C(=O)N[C@H](C(=O)N[C@@H](CCC(N)=O)C(=O)NCC(=O)N[C@@H](Cc1ccccc1)C(=O)N[C@H](C(=O)N1CCC[C@H]1C(=O)N[C@@H](CCCCN)C(=O)N[C@@H](CC(C)C)C(=O)N[C@@H](C)C(=O)N1CCC[C@H]1C(=O)N[C@@H](CCCNC(=N)N)C(=O)N[C@H](C(=O)N[C@@H](CC(=O)O)C(=O)N[C@@H](Cc1ccc(O)cc1)C(=O)O)[C@@H](C)O)C(C)C)[C@@H](C)CC | inhibition zone method | 11092618, LB 0.8% agar with 154 mM NaCl | overnight, 37 °C | lethal concentration | 2.91 µM |
| CC(C)C[C@@H]1NC(=O)[C@H](CC(C)C)NC(=O)[C@H](CC(C)C)NC(=O)[C@@H]2CSCC(=O)N[C@@H](CCCCN)C(=O)N[C@@H](CCCCN)C(=O)N[C@@H](CCCCN)C(=O)N[C@@H](CCCCNC(=O)[C@H](CCCCN)NC(=O)[C@H](CCCCN)NC(=O)[C@H](CCCCN)NC(=O)CSC[C@@H](C(=O)N[C@@H](CCCCN)C(N)=O)NC1=O)C(=O)N[C@@H](CCCCN)C(=O)N[C@@H](CC(C)C)C(=O)N[C@@H](CC(C)C)C(=O)N2 | – | PAO1 | 24 to 25 h | minimal biofilm inhibitory concentration | 32 µg/mL |
| CC[C@H](C)[C@H](NC(=O)[C@H](Cc1c[nH]cn1)NC(=O)[C@H](CCCCNC(=O)[C@@H](NC(=O)[C@H](CCCCN)NC(=O)[C@H](Cc1ccccc1)NC(=O)[C@H](CCCCNC(=O)[C@H](CC(C)C)NC(=O)[C@@H]1CCCN1C(=O)[C@H](CCCCN)NC(=O)C[C@@H]1O[C@@H](C)[C@@H](O)[C@@H](O)[C@@H]1O)NC(=O)[C@H](CC(C)C)NC(=O)[C@@H]1CCCN1C(=O)[C@H](CCCCN)NC(=O)C[C@@H]1O[C@@H](C)[C@@H](O)[C@@H](O)[C@@H]1O)[C@@H](C)CC)NC(=O)[C@@H](NC(=O)[C@H](CCCCN)NC(=O)[C@H](Cc1ccccc1)NC(=O)[C@H](CCCCNC(=O)[C@H](CC(C)C)NC(=O)[C@@H]1CCCN1C(=O)[C@H](CCCCN)NC(=O)C[C@@H]1O[C@@H](C)[C@@H](O)[C@@H](O)[C@@H]1O)NC(=O)[C@H](CC(C)C)NC(=O)[C@@H]1CCCN1C(=O)[C@H](CCCCN)NC(=O)C[C@@H]1O[C@@H](C)[C@@H](O)[C@@H](O)[C@@H]1O)[C@@H](C)CC)C(N)=O | biofilm formation, WST-8 staining | PAO1 | together with: tobramycin 0.1 µM | MBIC | 5 µM |
| CC[C@H](C)[C@H](NC(=O)[C@H](CCCNC(=N)N)NC(=O)[C@H](CCCCN)NC(=O)[C@H](CC(C)C)NC(=O)[C@H](CC(C)C)NC(=O)CN)C(=O)N[C@@H](CCCCN)C(=O)N[C@H](C(=O)N[C@@H](CC(C)C)C(=O)N[C@@H](CC(C)C)C(=O)NCCCC[C@H](NC(=O)[C@H](CC(C)C)NC(=O)[C@H](CC(C)C)NC(=O)[C@@H](NC(=O)[C@H](CCCCN)NC(=O)[C@@H](NC(=O)[C@H](CCCNC(=N)N)NC(=O)[C@H](CCCCN)NC(=O)[C@H](CC(C)C)NC(=O)[C@H](CC(C)C)NC(=O)CN)[C@@H](C)CC)[C@@H](C)O)C(=O)NCCCC[C@H](NC(=O)[C@H](CCCCNC(=O)[C@H](CC(C)C)NC(=O)[C@H](CC(C)C)NC(=O)[C@@H](NC(=O)[C@H](CCCCN)NC(=O)[C@@H](NC(=O)[C@H](CCCNC(=N)N)NC(=O)[C@H](CCCCN)NC(=O)[C@H](CC(C)C)NC(=O)[C@H](CC(C)C)NC(=O)CN)[C@@H](C)CC)[C@@H](C)O)NC(=O)[C@H](CC(C)C)NC(=O)[C@H](CC(C)C)NC(=O)[C@@H](NC(=O)[C@H](CCCCN)NC(=O)[C@@H](NC(=O)[C@H](CCCNC(=N)N)NC(=O)[C@H](CCCCN)NC(=O)[C@H](CC(C)C)NC(=O)[C@H](CC(C)C)NC(=O)CN)[C@@H](C)CC)[C@@H](C)O)C(N)=O)[C@@H](C)O | checkerboard | ATCC 27853 | together with: rifampicin | FIC index | 0.25 |
| CC[C@H](C)[C@H](NC(=O)[C@H](Cc1c[nH]cn1)NC(=O)[C@H](CCCCNC(=O)[C@@H](NC(=O)[C@H](CCCCN)NC(=O)CSC[C@H](NC(=O)[C@H](Cc1ccccc1)NC(=O)[C@H](CCCCNC(=O)[C@H](CC(C)C)NC(=O)[C@@H]1CCCN1C(=O)[C@H](CCCCN)NC(=O)c1ccc(O[C@@H]2O[C@H](CO)[C@H](O)[C@H](O)[C@H]2O)cc1)NC(=O)[C@H](CC(C)C)NC(=O)[C@@H]1CCCN1C(=O)[C@H](CCCCN)NC(=O)c1ccc(O[C@@H]2O[C@H](CO)[C@H](O)[C@H](O)[C@H]2O)cc1)C(N)=O)[C@@H](C)CC)NC(=O)[C@@H](NC(=O)[C@H](CCCCN)NC(=O)CSC[C@H](NC(=O)[C@H](Cc1ccccc1)NC(=O)[C@H](CCCCNC(=O)[C@H](CC(C)C)NC(=O)[C@@H]1CCCN1C(=O)[C@H](CCCCN)NC(=O)c1ccc(O[C@@H]2O[C@H](CO)[C@H](O)[C@H](O)[C@H]2O)cc1)NC(=O)[C@H](CC(C)C)NC(=O)[C@@H]1CCCN1C(=O)[C@H](CCCCN)NC(=O)c1ccc(O[C@@H]2O[C@H](CO)[C@H](O)[C@H](O)[C@H]2O)cc1)C(N)=O)[C@@H](C)CC)C(N)=O | – | PAO1 | biofilm-forming conditions | MBC | 30 µM (≈ 127 µg/mL) |
| CC[C@H](C)[C@H](NC(=O)[C@H](CCCCN)NC(=O)[C@H](CCCCN)NC(=O)[C@H](CC(C)C)NC(=O)[C@H](CCCCN)NC(=O)[C@H](CCC(=O)O)NC(=O)[C@H](CCCCN)NC(=O)[C@@H](NC(=O)[C@H](CCCCN)NC(=O)[C@H](CC(N)=O)NC(=O)[C@H](CCCNC(=N)N)NC(=O)[C@H](Cc1ccccc1)NC(=O)[C@H](CCCCN)NC(=O)[C@H](CCCNC(=N)N)NC(=O)[C@H](CC(C)C)NC(=O)[C@H](CCCNC(=N)N)NC(=O)[C@H](CCCCN)NC(=O)[C@H](CCCNC(=N)N)NC(=O)[C@H](CC(C)C)NC(=O)[C@@H](N)CC(C)C)[C@@H](C)CC)C(=O)NCC(=O)N[C@@H](CCC(N)=O)C(=O)N[C@@H](CCCCN)C(=O)N[C@H](C(=O)N[C@@H](CCC(N)=O)C(=O)NCC(=O)N[C@@H](Cc1ccccc1)C(=O)N[C@H](C(=O)N1CCC[C@H]1C(=O)N[C@@H](CCCCN)C(=O)N[C@@H](CC(C)C)C(=O)N[C@H](C(=O)N1CCC[C@H]1C(=O)N[C@@H](CCCNC(=N)N)C(=O)N[C@H](C(=O)N[C@@H](CCC(=O)O)C(=O)N[C@@H](CO)C(=O)O)[C@@H](C)O)C(C)C)C(C)C)[C@@H](C)CC | inhibition zone method | 374, LB 0.8% agar with 154 mM NaCl | overnight, 37 °C | lethal concentration | 4.77 µM |
| ONCC1CCCCC1 | microbial growth | ATCC15692 | 8 h | MIC50 | < 17 µg/mL |
| CC[C@H](C)[C@H](NC(=O)[C@H](CCCCN)NC(=O)[C@H](CCCCN)NC(=O)[C@H](CC(C)C)NC(=O)[C@H](CCCCN)NC(=O)[C@H](CCC(=O)O)NC(=O)[C@H](CCCCN)NC(=O)[C@@H](NC(=O)[C@H](CCCCN)NC(=O)[C@H](CC(N)=O)NC(=O)[C@H](CCCNC(=N)N)NC(=O)[C@H](Cc1ccccc1)NC(=O)[C@H](CCCCN)NC(=O)[C@H](CCCNC(=N)N)NC(=O)[C@H](CC(C)C)NC(=O)[C@H](CCCNC(=N)N)NC(=O)[C@H](CCCCN)NC(=O)[C@H](CCCNC(=N)N)NC(=O)[C@@H](N)CC(C)C)[C@@H](C)CC)C(=O)NCC(=O)N[C@@H](CCC(N)=O)C(=O)N[C@@H](CCCCN)C(=O)N[C@H](C(=O)N[C@@H](CCC(N)=O)C(=O)NCC(=O)N[C@@H](Cc1ccccc1)C(=O)N[C@H](C(=O)N1CCC[C@H]1C(=O)N[C@@H](CCCCN)C(=O)N[C@@H](CC(C)C)C(=O)O)C(C)C)[C@@H](C)CC | inhibition zone | DH | – | lethal concentration | 1.77 µM |
| CCCCCC(=O)NCC(=O)N[C@@H](CC(C)C)C(=O)N[C@@H](CC(C)C)C(=O)N[C@@H](CCCCN)C(=O)N[C@@H](CCCNC(=N)N)C(=O)N[C@H](C(=O)N[C@@H](CCCCN)C(=O)N[C@H](C(=O)N[C@@H](CC(C)C)C(=O)N[C@@H](CC(C)C)C(=O)NCCCC[C@H](NC(=O)[C@H](CCCCNC(=O)[C@H](CC(C)C)NC(=O)[C@H](CC(C)C)NC(=O)[C@@H](NC(=O)[C@H](CCCCN)NC(=O)[C@@H](NC(=O)[C@H](CCCNC(=N)N)NC(=O)[C@H](CCCCN)NC(=O)[C@H](CC(C)C)NC(=O)[C@H](CC(C)C)NC(=O)CNC(=O)CCCCC)[C@@H](C)CC)[C@@H](C)O)NC(=O)[C@H](CC(C)C)NC(=O)[C@H](CC(C)C)NC(=O)[C@@H](NC(=O)[C@H](CCCCN)NC(=O)[C@@H](NC(=O)[C@H](CCCNC(=N)N)NC(=O)[C@H](CCCCN)NC(=O)[C@H](CC(C)C)NC(=O)[C@H](CC(C)C)NC(=O)CNC(=O)CCCCC)[C@@H](C)CC)[C@@H](C)O)C(N)=O)[C@@H](C)O)[C@@H](C)CC | checkerboard | ATCC 27853 | together with: polymyxin B | FIC index | 0.25 |

For quick reference, copied from above:
| Structure (SMILES) | test | system | conditions | quantity | result |
| --- | --- | --- | --- | --- | --- |
| CC[C@H](C)[C@H](NC(=O)[C@H](Cc1c[nH]cn1)NC(=O)[C@H](CCCCNC(=O)[C@@H](NC(=O)[C@H](CCCCN)NC(=O)CSC[C@H](NC(=O)[C@H](Cc1ccccc1)NC(=O)[C@H](CCCCNC(=O)[C@H](CC(C)C)NC(=O)[C@@H]1CCCN1C(=O)[C@H](CCCCN)NC(=O)c1ccc(O[C@@H]2O[C@H](CO)[C@H](O)[C@H](O)[C@H]2O)cc1)NC(=O)[C@H](CC(C)C)NC(=O)[C@@H]1CCCN1C(=O)[C@H](CCCCN)NC(=O)c1ccc(O[C@@H]2O[C@H](CO)[C@H](O)[C@H](O)[C@H]2O)cc1)C(N)=O)[C@@H](C)CC)NC(=O)[C@@H](NC(=O)[C@H](CCCCN)NC(=O)CSC[C@H](NC(=O)[C@H](Cc1ccccc1)NC(=O)[C@H](CCCCNC(=O)[C@H](CC(C)C)NC(=O)[C@@H]1CCCN1C(=O)[C@H](CCCCN)NC(=O)c1ccc(O[C@@H]2O[C@H](CO)[C@H](O)[C@H](O)[C@H]2O)cc1)NC(=O)[C@H](CC(C)C)NC(=O)[C@@H]1CCCN1C(=O)[C@H](CCCCN)NC(=O)c1ccc(O[C@@H]2O[C@H](CO)[C@H](O)[C@H](O)[C@H]2O)cc1)C(N)=O)[C@@H](C)CC)C(N)=O | – | PAO1 | biofilm-forming conditions | MBC | 30 µM (≈ 127 µg/mL) |
